Measurements from different studies.
Each numbered part is a random draw from the data of one study; scales do not carry over between parts. Values joined by “and” are separate records of one study, mostly repeats; a detail may differ. Substitutions count along the parent as printed.
UniProt P57058, sequence (whole entry, looked up): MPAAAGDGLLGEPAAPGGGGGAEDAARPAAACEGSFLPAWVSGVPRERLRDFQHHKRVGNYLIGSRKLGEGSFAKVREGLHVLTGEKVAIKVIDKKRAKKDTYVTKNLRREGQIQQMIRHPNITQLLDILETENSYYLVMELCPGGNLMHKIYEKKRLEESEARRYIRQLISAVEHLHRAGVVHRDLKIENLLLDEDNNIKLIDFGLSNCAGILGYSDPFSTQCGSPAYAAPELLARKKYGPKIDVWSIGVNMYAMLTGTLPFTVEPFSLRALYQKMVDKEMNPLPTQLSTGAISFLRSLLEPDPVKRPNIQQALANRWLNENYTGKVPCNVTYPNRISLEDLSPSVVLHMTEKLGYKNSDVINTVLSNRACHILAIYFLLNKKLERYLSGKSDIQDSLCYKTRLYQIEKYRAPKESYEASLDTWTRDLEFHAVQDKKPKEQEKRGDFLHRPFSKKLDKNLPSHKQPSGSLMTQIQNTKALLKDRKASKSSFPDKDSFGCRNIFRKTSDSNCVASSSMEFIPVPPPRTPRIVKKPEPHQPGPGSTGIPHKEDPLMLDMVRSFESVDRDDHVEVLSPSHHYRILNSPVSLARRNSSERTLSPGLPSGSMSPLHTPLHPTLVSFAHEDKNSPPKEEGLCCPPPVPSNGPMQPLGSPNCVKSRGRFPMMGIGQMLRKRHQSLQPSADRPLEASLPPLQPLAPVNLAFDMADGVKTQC
UniProt Q13153, sequence (whole entry, looked up): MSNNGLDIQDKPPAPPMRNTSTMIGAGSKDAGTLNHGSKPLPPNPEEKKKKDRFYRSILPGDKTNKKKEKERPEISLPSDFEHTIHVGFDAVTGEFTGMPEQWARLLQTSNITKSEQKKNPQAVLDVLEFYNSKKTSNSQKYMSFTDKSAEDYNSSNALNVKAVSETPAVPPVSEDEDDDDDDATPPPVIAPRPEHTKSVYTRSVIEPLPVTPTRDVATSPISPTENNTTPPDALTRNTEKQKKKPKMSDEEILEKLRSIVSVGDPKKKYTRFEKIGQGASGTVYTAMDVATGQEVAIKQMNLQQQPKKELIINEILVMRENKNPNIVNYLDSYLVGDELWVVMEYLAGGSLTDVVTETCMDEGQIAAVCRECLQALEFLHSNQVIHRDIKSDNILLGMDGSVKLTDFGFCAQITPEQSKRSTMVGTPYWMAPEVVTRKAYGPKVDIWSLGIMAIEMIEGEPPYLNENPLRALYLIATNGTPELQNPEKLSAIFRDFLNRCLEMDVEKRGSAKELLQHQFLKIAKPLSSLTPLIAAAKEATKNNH

Study 1
Structure (SMILES): Cn1cncc1[C@](O)(COc1ccc(C#N)cc1-c1ccc(OC(F)(F)F)cc1)c1ccc(C#N)cc1
Effect on: cell-free assay
Method: competition with immobilised ligand
Tested at: 1 µM
For HUNK (Homo sapiens, UniProt P57058): remaining binding read 68%.
FLT3 (Homo sapiens, UniProt P36888, D835V/ITD) — remaining binding: 69%.
It gave 100% for remaining binding (PAK1 (Homo sapiens, UniProt Q13153)).

Study 2
Target: CCND1, cyclin fold, Cln2 fusion (human)
Method: yeast growth competition, sequencing
Sample: yeast
Notes: strong parent motif
Baseline: not given
Direction: higher = stronger binding
Starting sequence: viral docking peptide; YKVKRRLVFGADD
For `YKVKRRLRFGADD [V8R]`, “normalised enrichment score” read 0.308.
For `YKVKRRRVFGADD [L7R]`, “normalised enrichment score” read -0.11.
`YKPKRRLVFGADD [V3P]` — result for “normalised enrichment score”: 0.728.
Under “normalised enrichment score”, `YKVKRRFVFGADD [L7F]` is recorded as 0.581.
For `YKVKRRLVFIADD [G10I]`, “normalised enrichment score” read 1.08.
For `YKSKRRLVFGADD [V3S]`, “normalised enrichment score” read 2.31.
Under “normalised enrichment score”, `YKVKRPLVFGADD [R6P]` is recorded as 0.618.
For `YKVKRRLVFGKDD [A11K]`, “normalised enrichment score” read 1.18.

Study 3
Target: HLA class I histocompatibility antigen, C alpha chain, allele C*04:01 (Homo sapiens, UniProt P10321)
Effect on: peptide-MHC binding
Form: peptide
Tested at: concentration not given
For `CSDAFYPFY`, binding read “inactive”.
`RYRQVLSPL`: binding “inactive”.
For `RYSGFVRTL`, binding read “inactive”.
`FLLPILSQIYT`: binding “inactive”.
`HPVTATISF`: binding “inactive”.
`YVDIIGLSV` — result for binding: “inactive”.
For `YWMGGTTYF`, binding read “active”.
`ITLFPSYQL` — result for binding: “inactive”.

Study 4
Structure (SMILES): Cc1ccc(O)cc1Nc1ccnc2cc(-c3ccccn3)ccc12
Cell line: L929
Method: CCK-8
necroptosis protection; 5 µM, added: TNF-α-induced — viability: 53.9%.
necroptosis protection; 0.007 µM, added: TNF-α-induced — viability: 16.1%.
The viability was 40.9% (necroptosis protection; 0.156 µM, added: TNF-α-induced).
For 3.125 µM, added: zVAD: viability read 61.1% and 50.5% and 49.3% and 49.1%.
The viability was 63.8% (necroptosis protection; 1.25 µM, added: TNF-α-induced).

For quick reference, copied from above (study 2):
For `YKVKRRLRFGADD [V8R]`, “normalised enrichment score” read 0.308.
For `YKSKRRLVFGADD [V3S]`, “normalised enrichment score” read 2.31.
`YKPKRRLVFGADD [V3P]` — result for “normalised enrichment score”: 0.728.
